Assay results pooled from the literature.
Each line is one published result; not all experiments were run side by side. Several values in a cell are separate wells, animals, samples, runs or records. ± gives the spread as reported.

Structure (SMILES) | cell line | assay | conditions | how to read | endpoint | result
Cc1cc(Nc2ncc(Cl)c(Nc3ccccc3S(=O)(=O)C(C)C)n2)c(OC(C)C)cc1C1CCNCC1 | CLB-BAR | phosphoproteomics LC-MS/MS, item: HVCN1 phosphorylation | 200 nM, 60 min | baseline: untreated | log2 fold change | -3.23
Nc1cccc2c1C(=O)N(C1CCC(=O)NC1=O)C2=O (stereo not shown) | RPMI-8226 | flow cytometry, item: CD118 | concentration not given | baseline: comparator compound alone | surface marker level | 53.8%
CC(NCCc1ccc(O)cc1)C(O)c1ccc(O)cc1 (stereo not shown) | MDA-MB-231 BAX/BAK siRNA knockdown | CellTiter-Glo | concentration not given | baseline: normalised luminescence | viability | 54.6% and 40%
CCOC(=O)C1=C(C)NC2=C(C(=O)OC(c3ccc(OC)c(OC)c3)C2)C1c1ccc(Br)cc1 (mixture of isomers) | J774.A1 | cytotoxicity |  |  | EC50 | > 20 µM
CC(C)C[C@@H](C=O)NC(=O)[C@H](CC(C)C)NC(=O)[C@H](CC(C)C)NC(=O)OCc1ccccc1 | BRD4-HiBiT cells | BRD4 degradation rescue, inhibitor | 4 h, 50% degradation rescued, together with: dBET6 500 nM |  | EC50 | 0.393 µM
CCn1cc(-c2cc(Cn3ccoc3=N)cc3c2CCN([C@@H](C)c2cc(OC)ccn2)C3=O)c(C(F)(F)F)n1 | KP3 | cell growth | 120 h |  | EC50 | > 30 µM
CCOc1ccc(-c2nc3cc(-c4nc5cc(N6CCN(C)CC6)ccc5[nH]4)ccc3[nH]2)cc1OCC | MDA-MB-435 | SRB | 10 µM, 48 h |  | growth percent | -2.53%
CN(C)c1ncnc2c1ncn2[C@@H]1O[C@H](CO)[C@@H](O)[C@H]1O | mock-transfected cells | TGFα shedding, agonist | 1 µM | baseline: unstimulated vehicle control | AP-TGFα release | 5.52% and 5.62% and 4.3%
CC[C@H](C)[C@H](NC(=O)[C@H](C)NC(=O)CNC(=O)[C@H](Cc1ccccc1)NC(=O)[C@H](CC(N)=O)NC(=O)[C@H](CC(N)=O)NC(=O)[C@H](CO)NC(=O)[C@H](CO)NC(=O)[C@H](Cc1c[nH]cn1)NC(=O)[C@@H](NC(=O)[C@H](CC(C)C)NC(=O)[C@H](Cc1ccccc1)NC(=O)[C@H](CC(N)=O)NC(=O)[C@H](C)NC(=O)[C@H](CC(C)C)NC(=O)[C@H](CCCNC(=N)N)NC(=O)[C@H](CCC(N)=O)NC(=O)[C@@H](NC(=O)[C@H](C)NC(=O)[C@@H]1CSSC[C@H](NC(=O)[C@@H](N)CCCCN)C(=O)N[C@@H](CC(N)=O)C(=O)N[C@@H]([C@@H](C)O)C(=O)N[C@@H](C)C(=O)N[C@@H]([C@@H](C)O)C(=O)N1)[C@@H](C)O)C(C)C)C(=O)N[C@@H](CC(C)C)C(=O)N[C@@H](CO)C(=O)N[C@@H](CO)C(=O)N[C@H](C(=O)N[C@@H](CC(N)=O)C(=O)N[C@H](C(=O)NCC(=O)N[C@@H](CO)C(=O)N[C@@H](CC(N)=O)C(=O)N[C@H](C(=O)N[C@@H](Cc1ccc(O)cc1)C(N)=O)[C@@H](C)O)C(C)C)[C@@H](C)O | INS-1 | confocal microscopy | 1 µM, unit not given | baseline: control | intracellular ROS level | 6.09
CCOC(=O)C1=C(C)NC2=C(C(=O)OC(c3cc(OC)c(OC)c(OC)c3)C2)C1c1ccccc1Cl (stereo not shown) | J774.A1 | cytotoxicity |  |  | EC50 | > 20 µM
Cn1cc(Nc2nccc(-c3ccc4c(c3)CN(C3COC3)CC[C@H]4NC(=O)c3cn(C(C)(C)C)nn3)n2)cn1 | mouse splenic B cells | item: EIF2 signalling | 30 mg/kg, IgD-activated in vivo | baseline: vehicle, direction not given | pathway activation z-score | 0.728
N#C/C(=C\c1c[nH]nc1-c1ccc(Cl)c(Cl)c1)C(=O)O | LX-2 | qPCR, item: ACTA2 | 10 µM, hepatic stellate cell activation, together with: TGFβ | baseline: untreated | mRNA level | decreased
O=C(Nc1cc(OCCN2CCCC2)c2ccccc2n1)c1cc(OCc2ccc(F)cc2)cc(C(=O)Nc2cc(OCCN3CCCC3)c3ccccc3n2)n1 | HT-1080 | cell viability, CellTiter-Glo | 72 h | baseline: IC50 HT-1080 over WI-38 | selectivity ratio | 1.3
C[C@@H](O)[C@H](NC(=O)Nc1ncnc2c1ncn2[C@@H]1O[C@H](CO)[C@@H](O)[C@H]1O)C(=O)O | mock-transfected cells | TGFα shedding, agonist | 100 nM | baseline: unstimulated vehicle control | AP-TGFα release | 0%
Cc1ccc2c(c1)C(=O)[C@]1(O)CCN(c3ccc4nc(C)ccc4c3)C1=N2.Cl | human and murine cells | Western blot, item: NMIIA | concentration not given |  | protein level increase | ~60%
CC(C)C[C@H](NC(=O)[C@H](Cc1ccccc1)NC(=O)c1cnccn1)B(O)O | BRD4-HiBiT cells | BRD4 degradation rescue, inhibitor | 24 h, together with: dBET6 500 nM |  | EC50 | 0.0177 µM
C[C@H]1[C@@H](O)O[C@@H]2O[C@@]3(C)CC[C@H]4[C@H](C)CC[C@@H]1[C@@]24OO3 | THP-1 | annexin V/PI flow cytometry, item: annexin V+/PI+ | 0.8 µM, 24 h |  | late apoptotic cells | 1.4%
Cc1nn(-c2nc3c(F)cc(F)cc3s2)c(O)c1C(c1ccccc1C(F)(F)F)c1c(C)nn(-c2nc3c(F)cc(F)cc3s2)c1O | THP1-Dual | IFN luciferase reporter | 20 µM, together with: HT-DNA |  | inhibition | 87.8% and 57.9% and 58.5% and 58.4% and 88.1% and 52.7%
CCCCN1C[C@H](O)[C@@H](O)[C@@H](O)[C@H]1CO | sample B patient fibroblasts | Gb3 level lowering, LC-MS/MS, item: Gb3 d18:1/20:0 | 216 h |  | IC50 | 10.2 µM
Nc1ncnc2c1ncn2[C@@H]1O[C@H](CO)[C@@H](O)[C@H]1O | activated human T cells | item: adenine | 30 µM | baseline: DMSO | log2 fold change | 0.8 and 0.761
O=P(O)(O)C(O)(Cn1ccnc1)P(=O)(O)O | hFOB 1.19 | AlamarBlue | 15 µM, 48 h | baseline: control | viability | 99 ± 1%
CCCC1=C(C(=O)OCC)C(c2ccc(Cl)cc2C)C2=C(CC(c3ccc(OC)c(OC)c3)CC2=O)N1 (stereo not shown) | J774.A1 | cytotoxicity |  |  | EC50 | > 20 µM
CCn1cc(-c2cc(Cn3ccnc3)cc3c2CCN([C@H](c2cc(OC)ccn2)C2CC2)C3=O)c(C(F)(F)F)n1 | BT-20 | cell growth, inhibitor | 120 h |  | EC50 | > 30 µM
C=CC(=O)N1CCC([C@@H]2CCNc3c(C(N)=O)c(-c4ccc(Oc5ccccc5)cc4)nn32)CC1 | TMD8 | calcium flux, FLIPR | 2 h preincubation, together with: anti-IgM |  | maximum inhibition | 57.6%
Cc1cnc(NC2CCOCC2)nc1-n1cnc(C(=O)NC(CN)c2cc(F)cc(Cl)c2)c1 (stereo not shown) | MINO | flow cytometry | 1 µM, 48 h |  | S phase cells | 9.3%
CC/C(=N\NC(=O)NCc1cccc(O)c1)c1ccc(O)c(C)c1O | SK-OV-3 | gene expression, microarray, item: CLDN1 | 10 µM, 24 h | baseline: DMSO | log ratio | 3.37

Structure (SMILES) | cell line | assay | conditions | how to read | endpoint | result
O=C(COP(=O)(O)O)[C@@H](O)[C@H](O)[C@H](O)COP(=O)(O)O | HepG2 control sgRNA | CCK-8 | concentration not given | baseline: untreated wild type | cell proliferation | 180% and 191% and 199%
Cc1nn(-c2nc3c(F)cc(F)cc3s2)c(O)c1C(c1cccc(C(F)(F)F)c1)c1c(C)nn(-c2nc3c(F)cc(F)cc3s2)c1O | THP1-Dual | IFN luciferase reporter | 0.625 µM, together with: HT-DNA |  | inhibition | 0.908% and -2.23% and -9.76% and -7.93% and 1.42% and 0.99%
O=C(C[C@@H](C(F)F)n1ccc(F)n1)N1CCC(O)(Cn2cnc3c(cnn3-c3ccc(F)cc3)c2=O)CC1 | CHP-212 resistant subline R3 | annexin V/PI flow cytometry | 1 µM, 48 h |  | viable cells | 90.4% and 82.9% and 84.5%
CCOC(=O)C1=C(C)NC2=C(C(=O)CC(c3ccc(OC)c(OC)c3)C2)C1c1ccc(Cl)cc1 (mixture of isomers) | J774.A1 | cytotoxicity |  |  | EC50 | > 20 µM
C=Cc1c2[n-]c(c1C)/C=c1\[n-]/c(c(C)c1C=C)=C\c1[n-]c(c(CCC(=O)O)c1C)/C=c1\[n-]c(c(C)c1CCC(=O)O)=C2.[Sn+4] | SH-SY5Y | RNA-seq, item: FOSL2 mRNA | 5 µM, 5 h | baseline: untreated cells | fold change | 1.51
COc1cnc2cccc(N3CCc4c(cc(Cn5ccnc5C)cc4-c4cn(C)nc4C(F)(F)F)C3=O)c2c1 | KP3 | cell growth | 120 h |  | EC50 | 1.01 µM
CC/C(=N\NC(=O)C(C)Nc1ccccc1)c1ccc(O)c(C)c1O (stereo not shown) | SK-OV-3 | Western blot, item: LATS | 10 µM, 3 h, 2D culture, unit not given | baseline: β-actin | protein level | 0.96 ± 0.6
Cc1[nH]c(/C=C2\C(=O)Nc3ccc(S(=O)(=O)N(C)c4cccc(Cl)c4)cc32)c(C)c1C(=O)N1CCN(C)CC1 | RMS cell lines | cell growth |  | baseline: RMS over control lines | maximal sensitivity ratio | 2 fold
COc1cc(/C=C/C(=O)N2CCC=CC2=O)cc(OC)c1OC | MDA-MB-468 | qRT-PCR, item: NDUFS4 | 30 µM, 6 h | baseline: time zero | mRNA level | 85.8 ± 5.4%
COC[C@H](NC(=O)c1cnc(C)s1)C(=O)N[C@@H](COC)C(=O)N[C@@H](Cc1ccccc1)C(=O)[C@@]1(C)CO1 | BRD4-HiBiT cells | BRD4 degradation rescue, inhibitor | 4 h, 50% degradation rescued, together with: dBET6 500 nM |  | EC50 | 9.38 µM
Cl.Cl.c1cc(N2CCCCC2)ccc1Nc1cc2ncc(OCC3CCNCC3)nc2cc1-c1ccc(N2CCCCC2)cc1 | MOLM-13 | RT-qPCR, item: Myc and Meis1 | 0.3 and 1 µM, 3 days |  | mRNA level | decreased
Cc1nc(NC(=O)N2CCC[C@H]2C(N)=O)sc1-c1ccnc(C(C)(C)C(F)(F)F)c1 | MKN-1 | CellTiter-Glo | 120 h |  | Hill coefficient GR curve | 1.52
CC(C)C[C@H](NC(=O)CNC(=O)c1cc(Cl)ccc1Cl)B(O)O | BRD4-HiBiT cells | BRD4 degradation rescue, inhibitor | 4 h, together with: dBET6 500 nM |  | EC50 | 0.198 µM
COc1ccc(-n2nc(C(C)=O)s/c2=N\N=C(/C)c2ccc(NC(=O)c3ccc(Cl)cc3)cc2)cc1 | HepG2 |  | 5 µM |  | toxicity | 93.9%
Clc1nc(NCc2ccco2)c2[nH]cnc2n1 | FD iPSC-derived cardiomyocytes | alternative splicing, RNA-seq, item: DGKA exon chr12:55940081-55940170 | unit not given | baseline: DMSO minus compound | ΔPSI | -0.214
COc1cccc2c1C(=O)c1c(O)c3c(c(O)c1C2=O)C[C@@](O)(C(=O)CO)C[C@@H]3O[C@H]1C[C@H](N)[C@H](O)[C@H](C)O1 | HepG2 | item: glutathione | 6 h, distribution mode 2 |  | point of departure | 0.2 µM
c1ccc2[nH]ccc2c1 | HCT-8 | RNA-seq, item: CD7 | concentration not given |  | mRNA level, LS mean | 3.95 counts per million
CC#CC(=O)N1CCC[C@H]1c1nc(-c2ccc(C(=O)Nc3ccccn3)cc2)c2c(N)nccn12 | TMD8 | calcium flux, FLIPR | 2 h preincubation, together with: anti-IgM |  | maximum inhibition | 52.9%
CCCCC[C@H](O)/C=C/[C@H]1C(=O)C[C@H](O)[C@@H]1C/C=C\CCCC(=O)O | HEK293-A2AR cells, SLCO2A1 knockout | HTRF cAMP | 50 nM |  | HTRF cAMP signal | 328 a.u. and 335 a.u. and 336 a.u.
Cc1nn(CC(F)(F)F)cc1Nc1ncc(Br)c(NCc2ccc(S(N)(=O)=O)cc2)n1 | THP1-Dual | western blot | 20 µM, together with: poly(I:C) | baseline: DMSO | phospho-TBK1 to TBK1 ratio | 0.33 and 0.352 and 0.617
C[C@H]1Oc2cc(cnc2N)-c2c(nn(C)c2C#N)CN(C)C(=O)c2ccc(F)cc21 | Aska-SS (ALK exon 2-17 deletion) | cell viability |  |  | Emax | 77.7%
O=C(/C=C/C=C/C=C/C1CCCCC1)NC1=C[C@@](O)(/C=C/C=C/C=C/C(=O)NC2=C(O)CCC2=O)[C@@H]2O[C@@H]2C1=O | MKN-1 | cell growth, CellTiter-Glo | 78 h |  | GI50 | 8.87 µM
CCc1cnc(N2CCC(c3nc(COc4ccc(-n5cnnn5)cc4)cs3)CC2)nc1 | HEK293T | RNA-seq, item: CBX4 mRNA | 10 µM, 6 h | baseline: vehicle | log2 fold change | -0.0979
O=C(CCCCCCC(=O)Nc1ccccc1)NO | MDA-MB-231 BAX/BAK siRNA knockdown | cell viability, CellTiter-Glo |  | direction not given | Z score | -0.298
CCOC(=O)C1=C(C)NC2=C(C(=O)OC(c3ccc(Cl)cc3)C2)C1c1ccccc1Cl (stereo not shown) | J774.A1 | cytotoxicity |  |  | EC50 | > 20 µM
Cn1cc(-c2ccc(-c3cncc(Cl)c3N3CCC4(CCNC4=O)CC3)cc2)cn1 | COLO 205 | gene expression, microarray, item: EFNA3 mRNA | concentration not given, 2 h | baseline: untreated cells | log2 fold change | 2.1
